Assay results from different studies.
Several values in a cell are separate wells, animals, samples, runs or records.
Target: cAMP-dependent protein kinase catalytic subunit alpha (PRKACA, Homo sapiens, UniProt P17612)

With `N[C@H](C(=O)N1CCCC1)C1CCN(c2nccc3c(-c4ncc(Cl)cc4Cl)cccc23)CC1` the inhibition was 7.1% (kinase activity, inhibitor; 10 µM, added: ATP 1 mM).
The remaining activity of `[CH3][Ti+2][O]C(=O)c1ccc([S][Au][PH](c2ccccc2)(c2ccccc2)c2ccccc2)cc1.c1cc[cH-]c1.c1cc[cH-]c1` is reported as 93.4% and 92.5% (kinase activity, HotSpot kinase; 1 µM, added: ATP 10 µM).
With `CS(C)(=O)=Nc1ccc(-c2ccc(-c3nc4cc(O[C@@H]5CO[C@H]6[C@@H]5OC[C@H]6O)[nH]c4cc3F)cc2)cc1` the inhibition was -9% (enzyme activity, inhibitor; 10 µM).
`O=C(N[C@@H]1c2ccccc2C[C@H]1N1CCCC1)c1ccc(-c2ccnc3[nH]ccc23)nc1` gave a remaining binding of 0.4% (binding, competition with immobilised ligand; 3 µM).
`C[C@H](NCc1ccc(-c2ccc(C(F)(F)F)cc2)cc1)C(N)=O` gave an inhibition of 21% (cell-free assay, competition with immobilised ligand; 1 µM).
The remaining binding of `CCOC(=O)[C@@H]1Cc2c(cc([N+](=O)[O-])cc2[N+](=O)[O-])[C@H](O)[C@]12C(=O)Nc1ccc(Br)cc12` is reported as 100% (binding, competition with immobilised ligand; 0.1 µM).
`CC(C)[C@H]1NC(=O)C[C@H]2/C=C/CCSSC[C@@H](NC1=O)C(=O)N[C@H](Cc1cccc3ccccc13)C(=O)NCC(=O)O2` has an inhibition of -3.3% (enzyme activity, inhibitor; 10 µM).
The remaining binding of `Nc1ccc(/C=C/C(=O)N2CCc3c(oc4c(-c5ccc(F)cc5)cc(-c5ccc(C(=O)N6CCC(F)(F)CC6)cn5)cc34)C2)cn1` is reported as 100% (binding, competition with immobilised ligand; 1 µM).
The inhibition of `O=C(O)c1ccccc1/C=N/Nc1nc(-c2ccccc2Cl)cs1` is reported as -0.94% (enzyme activity, inhibitor; 1 µM).
`O=C1NC(=O)c2c1c1cc(F)c[n+]3c1c1c2c2cc(O)ccc2[n]1[Ru-4]312([N]=C=S)[S+]3CC[S+]1CC[S+]2CC3` (stereo not shown) gave a remaining activity of 13% (enzyme activity; 100 nM, human enzyme, added: 10 µM ATP; reference: untreated).

A few entries again:
The remaining activity of `[CH3][Ti+2][O]C(=O)c1ccc([S][Au][PH](c2ccccc2)(c2ccccc2)c2ccccc2)cc1.c1cc[cH-]c1.c1cc[cH-]c1` is reported as 93.4% and 92.5% (kinase activity, HotSpot kinase; 1 µM, added: ATP 10 µM).
